Measured values pooled from the literature.
Compare with care: the assays were run in different laboratories. Numbers after ± are the reported error.
Cell line: BV-2

Compound | assay | conditions | how to read | quantity | result
COc1cc(O)cc2c1-c1ccc(O)c(OC)c1CC2 | ELISA, measured: TNF-α | concentration not given, pretreatment, added: LPS |  | cytokine release | decreased
O=[N][Fe]1([N]=O)[S](CCO)[Fe]([N]=O)([N]=O)[S]1CCO | cell growth or viability, CCK-8 |  |  | IC50 | 11.7 µM
COc1cc(/C=C/C(=O)O)ccc1O | NO release, inhibitor, Griess | 5 µM, LPS-stimulated |  | inhibition | 51.9%
CC[C@@]12CCc3c(c4ccccc4n3C)CCN(C[C@H](O)[C@H]1O)C2 | NO production | 1.5 µM, 1 h, 24 h stimulation, added: LPS 800 ng/mL | relative to: LPS control | inhibition | 37.8 ± 4.7%
COc1cc(Cn2ccc3cc(C(=O)NCC45CC6CC(CC(C6)C4)C5)ccc32)ccc1C(=O)NO | amyloid phagocytosis | 1000 nM, 3 h, added: Aβ42 10 nM |  | phagocytosing cells | increased
CC[C@@]12CC(O)c3[nH]c4ccccc4c3CCN(C[C@H]3O[C@H]31)C2 (stereo partly drawn) | cell growth or viability, MTT |  |  | IC50 | > 100 µM
CC[C@H]1CC[C@H]2[C@@H]3C[C@@H](O)[C@@]4(O)C[C@H](N)CC[C@]4(C)[C@H]3CC[C@]12C | nuclear intensity, high-content imaging |  |  | IC50 | 1 µM
COc1cc(O)c(-c2c(O)cc(OC)c3c2ccc2cc(O)ccc23)c2ccc3ccccc3c12 | NO release, inhibitor, Griess | LPS-stimulated |  | IC50 | 8.42 µM
CC[C@@]12CCc3[nH]c4ccccc4c3CCN(C[C@H]3O[C@H]31)C2 | NO production | 3 µM, 1 h, 24 h stimulation, added: LPS 800 ng/mL | relative to: LPS control | inhibition | 39.6 ± 5.4%
